Results collected from several papers.
Parts stem from different laboratories: compare values within a part only.
Sequence of UniProt Q9Y6M4 (whole entry, looked up): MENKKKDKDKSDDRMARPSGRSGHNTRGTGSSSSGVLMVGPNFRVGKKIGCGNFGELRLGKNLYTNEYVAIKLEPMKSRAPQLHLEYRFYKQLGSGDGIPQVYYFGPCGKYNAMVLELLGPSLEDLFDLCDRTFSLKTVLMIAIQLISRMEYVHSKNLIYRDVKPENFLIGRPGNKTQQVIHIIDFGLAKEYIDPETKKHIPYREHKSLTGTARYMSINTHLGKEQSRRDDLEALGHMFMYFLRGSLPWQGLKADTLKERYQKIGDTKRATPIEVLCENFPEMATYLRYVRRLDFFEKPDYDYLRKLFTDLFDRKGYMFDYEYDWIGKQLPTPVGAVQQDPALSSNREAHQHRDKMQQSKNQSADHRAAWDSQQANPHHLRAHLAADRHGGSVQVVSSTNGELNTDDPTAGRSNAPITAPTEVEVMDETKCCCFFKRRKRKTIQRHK
Sequence of UniProt Q96PY6 (whole entry, looked up): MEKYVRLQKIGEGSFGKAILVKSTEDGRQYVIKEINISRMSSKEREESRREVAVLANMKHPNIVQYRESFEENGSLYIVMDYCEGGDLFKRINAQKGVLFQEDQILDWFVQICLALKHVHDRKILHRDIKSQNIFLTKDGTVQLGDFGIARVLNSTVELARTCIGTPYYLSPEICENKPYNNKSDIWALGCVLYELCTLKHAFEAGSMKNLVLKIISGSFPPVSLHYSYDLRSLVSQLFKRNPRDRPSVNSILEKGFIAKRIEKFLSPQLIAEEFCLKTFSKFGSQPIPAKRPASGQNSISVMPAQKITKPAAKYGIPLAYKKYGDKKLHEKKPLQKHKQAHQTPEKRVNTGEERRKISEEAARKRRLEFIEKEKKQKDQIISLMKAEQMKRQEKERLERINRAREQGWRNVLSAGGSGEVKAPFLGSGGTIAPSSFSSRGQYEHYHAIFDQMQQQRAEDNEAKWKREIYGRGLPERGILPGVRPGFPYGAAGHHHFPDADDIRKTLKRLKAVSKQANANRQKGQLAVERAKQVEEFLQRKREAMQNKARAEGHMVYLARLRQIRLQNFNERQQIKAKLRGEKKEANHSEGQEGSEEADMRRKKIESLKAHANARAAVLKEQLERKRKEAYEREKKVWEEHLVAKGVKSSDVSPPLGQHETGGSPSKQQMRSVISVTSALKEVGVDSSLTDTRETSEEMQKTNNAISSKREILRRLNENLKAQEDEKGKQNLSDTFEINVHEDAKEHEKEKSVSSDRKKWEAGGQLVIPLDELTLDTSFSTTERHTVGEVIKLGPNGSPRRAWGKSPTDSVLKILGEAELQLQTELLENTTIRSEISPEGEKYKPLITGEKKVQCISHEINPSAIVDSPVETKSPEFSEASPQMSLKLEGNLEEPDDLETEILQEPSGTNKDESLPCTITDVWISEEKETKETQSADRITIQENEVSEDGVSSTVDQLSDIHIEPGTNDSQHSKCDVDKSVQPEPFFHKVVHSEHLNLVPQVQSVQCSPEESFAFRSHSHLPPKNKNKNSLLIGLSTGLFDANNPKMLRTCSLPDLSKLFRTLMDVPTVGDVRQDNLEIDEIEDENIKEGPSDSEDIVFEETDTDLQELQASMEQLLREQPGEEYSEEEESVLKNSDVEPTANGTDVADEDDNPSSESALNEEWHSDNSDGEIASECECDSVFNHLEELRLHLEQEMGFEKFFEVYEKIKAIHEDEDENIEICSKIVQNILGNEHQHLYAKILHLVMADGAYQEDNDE
Sequence of UniProt O96017 (whole entry, looked up): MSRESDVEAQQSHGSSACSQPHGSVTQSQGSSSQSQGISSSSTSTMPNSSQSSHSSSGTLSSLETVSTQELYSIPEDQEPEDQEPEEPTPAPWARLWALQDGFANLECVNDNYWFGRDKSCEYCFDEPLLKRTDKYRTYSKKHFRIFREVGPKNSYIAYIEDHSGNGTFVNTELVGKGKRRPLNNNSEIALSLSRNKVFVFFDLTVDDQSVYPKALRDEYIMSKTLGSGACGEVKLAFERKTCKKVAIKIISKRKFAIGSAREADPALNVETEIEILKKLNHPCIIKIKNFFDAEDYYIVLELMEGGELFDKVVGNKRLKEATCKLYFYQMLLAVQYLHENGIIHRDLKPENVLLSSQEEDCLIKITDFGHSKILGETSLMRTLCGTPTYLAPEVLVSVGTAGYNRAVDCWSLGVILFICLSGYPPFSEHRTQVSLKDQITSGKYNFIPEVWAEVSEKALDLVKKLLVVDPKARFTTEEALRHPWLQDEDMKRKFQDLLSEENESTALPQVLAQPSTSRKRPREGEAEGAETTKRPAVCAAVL
Sequence of UniProt Q96NX5 (whole entry, looked up): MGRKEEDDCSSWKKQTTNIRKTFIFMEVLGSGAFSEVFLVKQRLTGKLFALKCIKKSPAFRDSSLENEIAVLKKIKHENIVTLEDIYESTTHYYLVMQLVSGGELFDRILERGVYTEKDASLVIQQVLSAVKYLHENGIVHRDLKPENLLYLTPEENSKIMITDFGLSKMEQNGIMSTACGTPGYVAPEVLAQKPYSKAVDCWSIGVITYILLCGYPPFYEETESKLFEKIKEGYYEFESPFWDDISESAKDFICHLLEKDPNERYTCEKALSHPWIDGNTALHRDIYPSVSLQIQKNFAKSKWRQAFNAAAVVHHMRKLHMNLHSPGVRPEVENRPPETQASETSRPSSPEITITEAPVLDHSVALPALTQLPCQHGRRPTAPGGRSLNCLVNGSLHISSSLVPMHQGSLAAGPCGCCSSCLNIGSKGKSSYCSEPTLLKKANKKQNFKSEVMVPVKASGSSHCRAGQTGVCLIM
Sequence of UniProt P10398 (whole entry, looked up): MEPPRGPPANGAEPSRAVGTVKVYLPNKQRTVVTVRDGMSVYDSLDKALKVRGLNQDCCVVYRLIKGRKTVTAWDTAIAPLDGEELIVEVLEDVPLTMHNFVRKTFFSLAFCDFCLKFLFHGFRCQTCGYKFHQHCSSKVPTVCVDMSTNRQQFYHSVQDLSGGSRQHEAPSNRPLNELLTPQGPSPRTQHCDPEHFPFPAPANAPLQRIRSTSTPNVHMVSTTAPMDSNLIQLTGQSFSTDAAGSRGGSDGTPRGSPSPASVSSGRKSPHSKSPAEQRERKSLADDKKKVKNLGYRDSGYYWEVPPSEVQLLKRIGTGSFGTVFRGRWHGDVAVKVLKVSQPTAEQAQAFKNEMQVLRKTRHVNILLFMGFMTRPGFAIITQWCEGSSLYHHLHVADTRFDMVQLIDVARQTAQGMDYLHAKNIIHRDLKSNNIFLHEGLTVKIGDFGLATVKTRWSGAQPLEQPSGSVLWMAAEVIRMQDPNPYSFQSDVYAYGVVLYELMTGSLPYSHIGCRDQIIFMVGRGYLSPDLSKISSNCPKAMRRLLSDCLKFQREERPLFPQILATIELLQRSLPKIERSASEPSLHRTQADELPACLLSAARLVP
Sequence of UniProt P22607 (whole entry, looked up): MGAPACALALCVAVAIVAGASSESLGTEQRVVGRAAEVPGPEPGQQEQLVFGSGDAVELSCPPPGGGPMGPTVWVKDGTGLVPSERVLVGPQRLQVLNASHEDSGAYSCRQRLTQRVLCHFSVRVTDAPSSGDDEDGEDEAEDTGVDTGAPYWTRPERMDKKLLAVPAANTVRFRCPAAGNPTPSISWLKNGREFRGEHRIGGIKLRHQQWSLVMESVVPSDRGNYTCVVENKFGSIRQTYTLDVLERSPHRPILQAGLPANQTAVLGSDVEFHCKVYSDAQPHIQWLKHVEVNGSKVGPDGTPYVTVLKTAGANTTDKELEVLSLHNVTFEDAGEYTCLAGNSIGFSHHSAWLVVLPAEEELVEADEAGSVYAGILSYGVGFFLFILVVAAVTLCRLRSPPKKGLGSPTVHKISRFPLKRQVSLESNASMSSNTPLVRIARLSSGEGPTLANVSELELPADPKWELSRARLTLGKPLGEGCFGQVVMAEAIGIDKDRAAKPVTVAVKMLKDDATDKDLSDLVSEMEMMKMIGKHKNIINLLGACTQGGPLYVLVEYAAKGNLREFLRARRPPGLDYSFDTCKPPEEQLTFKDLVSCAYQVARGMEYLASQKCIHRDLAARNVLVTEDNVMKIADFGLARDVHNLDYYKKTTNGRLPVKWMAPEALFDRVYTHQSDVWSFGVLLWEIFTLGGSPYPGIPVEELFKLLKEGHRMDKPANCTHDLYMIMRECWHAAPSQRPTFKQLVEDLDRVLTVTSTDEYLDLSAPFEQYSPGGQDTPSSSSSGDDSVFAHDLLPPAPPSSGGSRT
Sequence of UniProt P49137 (whole entry, looked up): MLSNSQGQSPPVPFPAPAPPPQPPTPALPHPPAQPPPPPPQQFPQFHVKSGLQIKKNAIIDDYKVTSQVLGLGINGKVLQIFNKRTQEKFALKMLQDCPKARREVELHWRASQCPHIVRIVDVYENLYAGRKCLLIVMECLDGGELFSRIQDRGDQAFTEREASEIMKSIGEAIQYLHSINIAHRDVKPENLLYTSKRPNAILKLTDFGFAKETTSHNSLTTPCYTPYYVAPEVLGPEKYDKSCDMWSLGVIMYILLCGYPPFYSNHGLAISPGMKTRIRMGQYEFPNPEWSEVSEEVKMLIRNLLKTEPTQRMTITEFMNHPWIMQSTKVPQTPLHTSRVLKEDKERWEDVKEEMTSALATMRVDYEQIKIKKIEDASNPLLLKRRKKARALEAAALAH

Study 1
SMILES: Cc1ccc(NC(=O)c2ccc(CN3CCN(C)CC3)cc2)cc1Nc1nccc(-c2cccnc2)n1
Read-out: enzyme activity
Action: inhibitor
Tested at: 0.5 µM
Relative to: control
Endpoint: remaining activity
ACVR1B (Homo sapiens, UniProt P36896): 104%
MAP3K5 (Homo sapiens, UniProt Q99683): 101%
TEK (Homo sapiens, UniProt Q02763): 98.4%
NEK1 (Homo sapiens, UniProt Q96PY6): 125%
CSNK1G3 (Homo sapiens, UniProt Q9Y6M4): 100%
TAOK2 (Homo sapiens, UniProt Q9UL54): 104%
MAPKAPK2 (Homo sapiens, UniProt P49137): 97.9%
ARAF (Homo sapiens, UniProt P10398): 95%
ULK2 (Homo sapiens, UniProt Q8IYT8): 103%
RPS6KA2 (Homo sapiens, UniProt Q15349): 98%
CSNK1G2 (Homo sapiens, UniProt P78368): 96.6%
MAP3K14 (Homo sapiens, UniProt Q99558): 99.1%
FGFR3 (Homo sapiens, UniProt P22607): 97.4%

Study 2
SMILES: Cc1cc(NC(=O)c2cccc(S(F)(F)(F)(F)F)c2)cc(-n2ccn3nc(-c4cccnc4)cc23)c1
Tested at: 1 µM
Endpoint: remaining binding
CSNK1G3 (Homo sapiens, UniProt Q9Y6M4); cell-free assay, competition with immobilised ligand: 100%
CAMK1G (Homo sapiens, UniProt Q96NX5); cell-free assay, competition with immobilised ligand: 100%
CDC42BPG (Homo sapiens, UniProt Q6DT37); competition binding: 100%
CHEK2 (Homo sapiens, UniProt O96017); cell-free assay, competition with immobilised ligand: 100%

Study 3
Target: Ras GTPase-activating protein-binding protein 1, C-terminal RGG region (G3BP1, Homo sapiens, UniProt Q13283)
Sequence of UniProt Q13283 (whole entry, looked up): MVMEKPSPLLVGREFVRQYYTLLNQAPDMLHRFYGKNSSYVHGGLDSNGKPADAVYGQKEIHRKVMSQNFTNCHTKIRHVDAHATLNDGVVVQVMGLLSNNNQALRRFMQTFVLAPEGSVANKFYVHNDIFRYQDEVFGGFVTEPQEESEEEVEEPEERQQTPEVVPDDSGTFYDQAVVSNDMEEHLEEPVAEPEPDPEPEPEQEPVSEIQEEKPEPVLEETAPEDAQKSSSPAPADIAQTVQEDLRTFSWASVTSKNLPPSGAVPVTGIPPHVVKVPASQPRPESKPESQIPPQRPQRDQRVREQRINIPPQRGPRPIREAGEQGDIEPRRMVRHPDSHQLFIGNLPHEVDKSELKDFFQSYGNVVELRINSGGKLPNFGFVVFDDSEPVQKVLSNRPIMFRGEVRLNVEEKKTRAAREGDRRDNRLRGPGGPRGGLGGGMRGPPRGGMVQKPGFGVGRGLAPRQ
Method: RNA Bind-n-Seq
Molecule type: RNA
Matrix: in vitro
Tested at: 1 µM
Notes: whole 134-nt RNA, ends assumed
Added: 150 mM KCl
Relative to: input library
Direction: higher = stronger binding
Endpoint: log2 enrichment
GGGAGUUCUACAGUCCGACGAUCUGGGAGGUGGAUUUUGAUUAUUUUUUUAGCUCAUUUCCAGGGGUGGGAAUUUUUUUUUAAUAUGUGUCAUGAAUAAAGUUGUUUUUGAAAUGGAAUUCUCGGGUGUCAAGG: 3.87
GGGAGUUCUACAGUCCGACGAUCAAGUCCUGUGCUACACAUCGUAUGUACCGAAUCGGGAAAGGGUUUGGGUUUUUGGGAAAGUAUUAUGUUACGCCGUUCGGAUCUGCACUUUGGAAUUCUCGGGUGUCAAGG: 1.19
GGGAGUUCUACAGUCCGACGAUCUGGCCCUGGUGGCAUGCGGGGAGGAAGAGGUGGCCUCAUGGAUCGUGGUGGUCCCGGUGGAAUGUUCAGAGGAGGCCGUGGUGGAGACAGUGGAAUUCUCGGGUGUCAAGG: 3.34
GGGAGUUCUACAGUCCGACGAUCCAAGUCCUGUGCUACACAUCGUAUGUACCGAAUCGGUGGUUUUUGGUUUUUUUGGAAAGUAUUAUGUUACGCCGUUCGGAUCUGCACUUCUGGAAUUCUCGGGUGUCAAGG: -1.47
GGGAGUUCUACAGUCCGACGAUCACCAUGCAGGUGGGCAUCUUUGGGAAGUGGGGCAAGGGGGGGAUAGGGAGGGGGGUAACACUUUGGGAACAGGUGGUCCCAGGUCGUGUCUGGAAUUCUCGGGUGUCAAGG: 2.13
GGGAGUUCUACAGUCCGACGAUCCUCAAGUCCUGUGCUACACAUCGUAUGUACCGAAUCGGGGAAGGGAAGGGAAGGAAAGUAUUAUGUUACGCCGUUCGGAUCUGCACUUCCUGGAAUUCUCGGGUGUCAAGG: -0.819
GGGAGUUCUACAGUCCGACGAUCCCUGCUUUUGGGGGUGACCGCCGGAGCGCGGCGUGAGCCCUCCCCCUUGGGAUCCCGCAGCUGACCAGUCGCGCUGACGGACAGACAGACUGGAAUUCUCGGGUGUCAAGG: -2.66
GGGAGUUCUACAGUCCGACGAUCCCUCAAGUCCUGUGCUACACAUCGUAUGUACCGAAUCGGUUGGGUUGGGUUGGAAAGUAUUAUGUUACGCCGUUCGGAUCUGCACUUCCAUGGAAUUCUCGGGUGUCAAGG: -0.967

Other studies, line by line
LGALS8 (Homo sapiens, UniProt O00214)  cross-linked residues (SPTAN1 (Homo sapiens, UniProt Q13813); cross-linking MS; cell fractions; added: DMTMM): K279 to E1117

A few entries again (study 1):
FGFR3 (Homo sapiens, UniProt P22607): 97.4%
ARAF (Homo sapiens, UniProt P10398): 95%
